Experimental data gathered from unrelated publications.
Numbered parts are unrelated; each lists some results of a single study.
Sequence of UniProt P51617 (whole entry, looked up): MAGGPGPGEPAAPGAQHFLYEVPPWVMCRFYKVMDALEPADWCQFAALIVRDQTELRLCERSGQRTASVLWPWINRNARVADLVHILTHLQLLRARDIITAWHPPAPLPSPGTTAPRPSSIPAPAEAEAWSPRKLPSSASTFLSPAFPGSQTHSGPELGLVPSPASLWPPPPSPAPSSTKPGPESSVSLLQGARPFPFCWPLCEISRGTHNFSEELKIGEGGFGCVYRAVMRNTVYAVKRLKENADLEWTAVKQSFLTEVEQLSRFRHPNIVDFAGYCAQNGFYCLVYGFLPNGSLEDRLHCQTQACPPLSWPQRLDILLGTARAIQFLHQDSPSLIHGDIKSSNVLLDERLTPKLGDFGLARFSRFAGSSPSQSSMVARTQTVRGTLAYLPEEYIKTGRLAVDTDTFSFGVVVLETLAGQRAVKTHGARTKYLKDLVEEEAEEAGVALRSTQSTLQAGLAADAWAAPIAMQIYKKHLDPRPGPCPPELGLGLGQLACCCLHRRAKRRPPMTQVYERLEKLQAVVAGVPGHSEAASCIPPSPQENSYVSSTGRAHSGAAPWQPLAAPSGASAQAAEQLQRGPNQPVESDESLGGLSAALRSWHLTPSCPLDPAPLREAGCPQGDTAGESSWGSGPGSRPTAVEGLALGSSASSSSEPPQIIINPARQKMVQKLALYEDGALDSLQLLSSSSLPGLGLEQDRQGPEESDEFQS
Sequence of UniProt P23458 (whole entry, looked up): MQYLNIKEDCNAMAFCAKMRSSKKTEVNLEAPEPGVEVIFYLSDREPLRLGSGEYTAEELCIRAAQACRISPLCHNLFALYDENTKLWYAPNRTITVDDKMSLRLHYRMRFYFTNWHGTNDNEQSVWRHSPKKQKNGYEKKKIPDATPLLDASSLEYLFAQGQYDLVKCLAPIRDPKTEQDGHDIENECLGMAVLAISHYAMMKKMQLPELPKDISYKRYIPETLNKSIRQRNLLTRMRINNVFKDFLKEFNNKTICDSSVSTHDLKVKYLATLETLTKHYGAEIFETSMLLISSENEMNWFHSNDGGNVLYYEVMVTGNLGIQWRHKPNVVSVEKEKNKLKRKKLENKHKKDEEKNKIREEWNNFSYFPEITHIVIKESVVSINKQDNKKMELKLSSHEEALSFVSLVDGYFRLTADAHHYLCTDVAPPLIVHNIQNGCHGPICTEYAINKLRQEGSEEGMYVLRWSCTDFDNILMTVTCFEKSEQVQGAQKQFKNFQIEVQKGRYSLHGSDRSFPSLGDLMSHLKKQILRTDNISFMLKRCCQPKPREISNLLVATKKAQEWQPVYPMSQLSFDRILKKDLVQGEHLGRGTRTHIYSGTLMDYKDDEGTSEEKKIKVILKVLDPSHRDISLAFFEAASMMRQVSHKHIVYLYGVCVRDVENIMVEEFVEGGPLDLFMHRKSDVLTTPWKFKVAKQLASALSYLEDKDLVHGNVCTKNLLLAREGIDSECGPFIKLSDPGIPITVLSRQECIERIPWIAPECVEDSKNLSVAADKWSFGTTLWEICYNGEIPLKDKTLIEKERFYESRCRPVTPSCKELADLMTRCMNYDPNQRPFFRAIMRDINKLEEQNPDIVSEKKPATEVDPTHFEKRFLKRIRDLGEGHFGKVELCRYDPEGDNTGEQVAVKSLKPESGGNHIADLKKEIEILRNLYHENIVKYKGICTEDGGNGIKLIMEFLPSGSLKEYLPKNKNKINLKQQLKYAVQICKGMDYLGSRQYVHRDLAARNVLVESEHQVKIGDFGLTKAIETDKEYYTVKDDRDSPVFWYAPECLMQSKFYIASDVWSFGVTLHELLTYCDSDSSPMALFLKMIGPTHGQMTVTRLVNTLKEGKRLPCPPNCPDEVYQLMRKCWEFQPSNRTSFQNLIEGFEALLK
Sequence of UniProt P07949 (whole entry, unmodified, looked up): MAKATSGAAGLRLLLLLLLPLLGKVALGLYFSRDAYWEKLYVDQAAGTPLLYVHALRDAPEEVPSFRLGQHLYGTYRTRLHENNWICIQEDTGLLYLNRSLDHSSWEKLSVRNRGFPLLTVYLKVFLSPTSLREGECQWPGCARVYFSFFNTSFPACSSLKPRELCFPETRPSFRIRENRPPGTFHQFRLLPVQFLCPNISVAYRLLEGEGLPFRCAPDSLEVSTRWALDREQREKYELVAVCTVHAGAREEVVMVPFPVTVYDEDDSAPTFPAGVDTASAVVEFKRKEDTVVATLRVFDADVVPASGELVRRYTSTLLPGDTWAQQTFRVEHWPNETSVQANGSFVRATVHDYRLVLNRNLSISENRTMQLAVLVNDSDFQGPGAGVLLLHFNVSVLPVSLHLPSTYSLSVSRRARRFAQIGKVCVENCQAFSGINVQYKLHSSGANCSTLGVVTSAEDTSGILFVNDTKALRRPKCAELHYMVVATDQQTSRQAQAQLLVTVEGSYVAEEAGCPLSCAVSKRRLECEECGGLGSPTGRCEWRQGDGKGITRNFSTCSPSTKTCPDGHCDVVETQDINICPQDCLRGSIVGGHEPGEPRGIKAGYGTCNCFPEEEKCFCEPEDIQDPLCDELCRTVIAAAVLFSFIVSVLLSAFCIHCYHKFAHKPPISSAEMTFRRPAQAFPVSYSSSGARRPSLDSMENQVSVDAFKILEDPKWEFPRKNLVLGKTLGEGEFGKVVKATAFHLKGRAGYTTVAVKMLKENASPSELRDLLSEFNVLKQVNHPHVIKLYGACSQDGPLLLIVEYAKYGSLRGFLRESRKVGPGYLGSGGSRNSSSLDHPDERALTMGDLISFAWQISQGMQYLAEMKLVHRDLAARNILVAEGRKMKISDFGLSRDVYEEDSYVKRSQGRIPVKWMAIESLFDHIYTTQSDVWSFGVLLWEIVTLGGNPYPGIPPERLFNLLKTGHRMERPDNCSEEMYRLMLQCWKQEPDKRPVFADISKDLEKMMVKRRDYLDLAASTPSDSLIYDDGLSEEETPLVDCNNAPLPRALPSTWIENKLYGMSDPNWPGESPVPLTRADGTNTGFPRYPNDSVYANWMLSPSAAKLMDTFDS
Sequence of UniProt P00519 (whole entry, unmodified, looked up): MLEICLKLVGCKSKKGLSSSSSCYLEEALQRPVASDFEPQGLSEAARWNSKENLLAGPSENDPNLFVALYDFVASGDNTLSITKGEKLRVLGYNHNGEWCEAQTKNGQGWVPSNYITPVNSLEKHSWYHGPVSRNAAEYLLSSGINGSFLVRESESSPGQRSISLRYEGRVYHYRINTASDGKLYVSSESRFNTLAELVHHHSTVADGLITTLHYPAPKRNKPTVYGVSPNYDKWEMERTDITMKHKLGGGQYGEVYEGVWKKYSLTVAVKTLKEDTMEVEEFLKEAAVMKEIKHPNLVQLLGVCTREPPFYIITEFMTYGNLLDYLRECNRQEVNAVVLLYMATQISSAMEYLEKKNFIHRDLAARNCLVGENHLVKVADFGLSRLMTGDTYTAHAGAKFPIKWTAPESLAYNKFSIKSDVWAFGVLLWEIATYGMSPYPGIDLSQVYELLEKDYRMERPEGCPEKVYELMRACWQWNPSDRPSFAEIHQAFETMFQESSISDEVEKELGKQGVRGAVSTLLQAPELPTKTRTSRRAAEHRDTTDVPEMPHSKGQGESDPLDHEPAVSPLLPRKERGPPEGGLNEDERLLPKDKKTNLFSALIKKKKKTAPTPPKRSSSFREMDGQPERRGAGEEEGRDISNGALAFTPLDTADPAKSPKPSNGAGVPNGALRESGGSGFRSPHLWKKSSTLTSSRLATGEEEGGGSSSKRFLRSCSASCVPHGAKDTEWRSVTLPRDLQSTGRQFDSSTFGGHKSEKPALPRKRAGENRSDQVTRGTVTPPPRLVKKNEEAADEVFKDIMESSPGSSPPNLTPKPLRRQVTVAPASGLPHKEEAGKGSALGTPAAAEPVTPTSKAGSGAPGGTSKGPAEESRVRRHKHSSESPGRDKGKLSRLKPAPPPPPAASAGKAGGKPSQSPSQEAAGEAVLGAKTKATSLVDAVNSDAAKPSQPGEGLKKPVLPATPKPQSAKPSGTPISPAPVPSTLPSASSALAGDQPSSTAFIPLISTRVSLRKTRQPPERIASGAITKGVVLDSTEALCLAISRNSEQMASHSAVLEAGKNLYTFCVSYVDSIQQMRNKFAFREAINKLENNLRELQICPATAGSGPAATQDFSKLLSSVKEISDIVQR
Sequence of UniProt P46734 (whole entry, looked up): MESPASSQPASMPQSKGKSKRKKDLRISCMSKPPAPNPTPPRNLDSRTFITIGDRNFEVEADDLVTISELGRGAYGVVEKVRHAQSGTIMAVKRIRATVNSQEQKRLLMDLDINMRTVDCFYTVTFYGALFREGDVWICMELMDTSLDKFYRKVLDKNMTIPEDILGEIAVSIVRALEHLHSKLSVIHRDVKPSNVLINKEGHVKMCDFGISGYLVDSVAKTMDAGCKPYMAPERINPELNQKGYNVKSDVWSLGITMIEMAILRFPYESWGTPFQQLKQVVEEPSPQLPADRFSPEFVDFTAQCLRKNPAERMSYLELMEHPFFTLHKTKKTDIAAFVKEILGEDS

Study 1
SMILES: CC(C)S(=O)(=O)c1ccc2nccc(Nc3ccc4sc(C5CCCC5)nc4c3)c2c1.Cl
Observed: kinase activity
Mode: inhibitor
Concentration: 1 µM
It gave 118% for remaining activity (STK38 (Homo sapiens, UniProt Q15208)).
The remaining activity was 82% (CILK1 (Homo sapiens, UniProt Q9UPZ9)).
VRK1 (Homo sapiens, UniProt Q99986) — remaining activity: 89%.
It gave 75% for remaining activity (PRKCA (Homo sapiens, UniProt P17252)).
PRKAA2 (Homo sapiens, UniProt P54646) — remaining activity: 86%.
It gave 94% for remaining activity (IRAK1 (Homo sapiens, UniProt P51617)).
NEK5 (Homo sapiens, UniProt Q6P3R8) — remaining activity: 88%.
For STK33 (Homo sapiens, UniProt Q9BYT3): remaining activity read 100%.
For MOK (Homo sapiens, UniProt Q9UQ07): remaining activity read 108%.
PRKX (Homo sapiens, UniProt P51817) — remaining activity: 105%.
The remaining activity was 104% (JAK1 (Homo sapiens, UniProt P23458)).
PRKACA (Homo sapiens, UniProt P17612) — remaining activity: 115%.
It gave 104% for remaining activity (SRPK3 (Homo sapiens, UniProt Q9UPE1)).
It gave 91% for remaining activity (NEK11 (Homo sapiens, UniProt Q8NG66)).
For ABL1 (Homo sapiens, UniProt P00519): remaining activity read 83%.

Study 2
Target: Casein kinase I isoform gamma-1 (CSNK1G1, Homo sapiens, UniProt Q9HCP0)
Sequence of UniProt Q9HCP0 (whole entry, looked up): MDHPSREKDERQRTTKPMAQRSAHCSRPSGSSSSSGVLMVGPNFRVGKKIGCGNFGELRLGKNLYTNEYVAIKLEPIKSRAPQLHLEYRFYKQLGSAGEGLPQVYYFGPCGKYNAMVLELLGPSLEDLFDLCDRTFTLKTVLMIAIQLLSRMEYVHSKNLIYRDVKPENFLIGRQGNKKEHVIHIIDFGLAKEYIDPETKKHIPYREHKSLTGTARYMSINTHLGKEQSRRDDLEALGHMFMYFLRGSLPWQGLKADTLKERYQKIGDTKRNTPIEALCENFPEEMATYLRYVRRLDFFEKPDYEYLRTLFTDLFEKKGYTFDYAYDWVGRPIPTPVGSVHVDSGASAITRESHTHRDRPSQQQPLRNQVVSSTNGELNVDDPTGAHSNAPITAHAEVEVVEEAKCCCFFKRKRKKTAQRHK
Observed: enzyme activity
Mode: inhibitor
Concentration: 0.5 µM
Baseline: control
`Nc1ncnc2n[nH]c(Nc3ccc(F)cc3)c12` gave a remaining activity of 83.3%.
`Cc1nc(-c2ccccc2)c(-c2ccncc2)o1` gave a remaining activity of 91.1%.
With `O=C(Nc1cccc(Nc2cc(Nc3cccc(C(F)(F)F)c3)ncn2)c1)C1CC1` the remaining activity was 94.8%.
`C#Cc1cccc(Nc2ncnc3cc(OCCOC)c(OCCOC)cc23)c1` has a remaining activity of 104%.
The remaining activity of `Oc1ccc(-c2nc(-c3ccncc3)c(-c3ccc(F)cc3)[nH]2)cc1` is reported as 97.3%.
`CN(C)c1ccc(C=C2C(=O)Nc3ccccc32)cc1` gave a remaining activity of 93%.
`Cc1cccc(-c2[nH]c(C(C)(C)C)nc2-c2ccc3c(c2)OCO3)n1` gave a remaining activity of 79.4%.
The remaining activity of `Nc1ccc2ncnc(NCCc3ccc(Oc4ccccc4)cc3)c2c1` is reported as 97.6%.
For `O=S(=O)(c1cccc2cnccc12)N1CCCNCC1`, the remaining activity was 89.6%.
For `CC(C)[C@H](CO)Nc1nc(Nc2cc(N)cc(Cl)c2)c2ncn(C(C)C)c2n1`, the remaining activity was 26.4%.
The remaining activity of `COc1ccc(OC)c2c(=S)c3ccccc3[nH]c12` is reported as 120%.
`Cn1sc(=O)n(Cc2ccccc2)c1=O` gave a remaining activity of 95.2%.
`O=C1NC(=O)C(c2cn(CCCn3ccnc3)c3ccccc23)=C1Nc1ccccc1` gave a remaining activity of 95%.
The remaining activity of `NCCNc1ncc(C(N)=O)c(Nc2cccc(C(F)(F)F)c2)n1` is reported as 90.6%.
The remaining activity of `Cn1c2ccccc2c2c3c(c4c5ccccc5n(CCC#N)c4c21)CNC3=O` is reported as 93.3%.
For `COc1ccc(CNC(=O)Nc2ncc([N+](=O)[O-])s2)cc1`, the remaining activity was 97.8%.

Study 3
Compound: C[C@H]1CC[C@H](n2c3cnccc3c3cnc(Nc4ccc5c(n4)CCN(C(=O)CO)C5)nc32)CC1
Observed: cell-free assay
Concentration: 1 µM
MATK (Homo sapiens, UniProt P42679) — remaining signal: 63%.
It gave 91% for remaining signal (PRPF4B (Homo sapiens, UniProt Q13523)).
For CDK11B (Homo sapiens, UniProt P21127): remaining signal read 100%.
It gave 52% for remaining signal (STK24 (Homo sapiens, UniProt Q9Y6E0)).
It gave 99% for remaining signal (IKBKE (Homo sapiens, UniProt Q14164)).
It gave 73% for remaining signal (STK39 (Homo sapiens, UniProt Q9UEW8)).
It gave 67% for remaining signal (RET (Homo sapiens, UniProt P07949, V804L)).
The remaining signal was 91% (GRK7 (Homo sapiens, UniProt Q8WTQ7)).
ULK2 (Homo sapiens, UniProt Q8IYT8) — remaining signal: 74%.
BRSK1 (Homo sapiens, UniProt Q8TDC3) — remaining signal: 57%.
It gave 13% for remaining signal (DYRK2 (Homo sapiens, UniProt Q92630)).
For EIF2AK4 (Homo sapiens, UniProt Q9P2K8, S808G): remaining signal read 100%.
The remaining signal was 8.1% (MAP2K3 (Homo sapiens, UniProt P46734)).

Study 4
SMILES: CCCCN(CCCC)C(=O)CN1C[C@@H](c2cc(OC)c3c(c2)OCO3)[C@H](C(=O)O)[C@H]1CC(C)(C)CCC
Observed: cell-free assay
Method: competition with immobilised ligand
Concentration: 1 µM
The remaining binding was 100% (STK39 (Homo sapiens, UniProt Q9UEW8)).
The remaining binding was 79% (Tyrosine-protein kinase JAK1, JH1 (JAK1, Homo sapiens, UniProt P23458)).
For RET (Homo sapiens, UniProt P07949, V804M): remaining binding read 82.4%.
For MAP4K2 (Homo sapiens, UniProt Q12851): remaining binding read 100%.
The remaining binding was 100% (MYLK2 (Homo sapiens, UniProt Q9H1R3)).
It gave 93.3% for remaining binding (CDK17 (Homo sapiens, UniProt Q00537)).
The remaining binding was 100% (PIK3CA (Homo sapiens, UniProt P42336, I800L)).
For STK32B (Homo sapiens, UniProt Q9NY57): remaining binding read 98.4%.
The remaining binding was 91.9% (FLT3 (Homo sapiens, UniProt P36888)).
The remaining binding was 99.2% (MAPK11 (Homo sapiens, UniProt Q15759)).
For PIK3C2G (Homo sapiens, UniProt O75747): remaining binding read 80.3%.
For Tyrosine-protein kinase ABL1, phosphorylated (ABL1, Homo sapiens, UniProt P00519, E255K): remaining binding read 93.5%.
The remaining binding was 77.1% (CSNK2A2 (Homo sapiens, UniProt P19784)).
The remaining binding was 76.6% (IRAK1 (Homo sapiens, UniProt P51617)).
For TAOK1 (Homo sapiens, UniProt Q7L7X3): remaining binding read 97.4%.
PIM2 (Homo sapiens, UniProt Q9P1W9) — remaining binding: 96.3%.
